Published values from different studies.
Lines come from different studies, so protocols differ.
Cell line: THP-1

Compound	assay	setting	scale	endpoint	value
COc1cnc2cccc(N3CCc4c(cc(Cn5ccnc5C)cc4-c4cn(C)nc4C(F)(F)F)C3=O)c2c1	cell growth, inhibitor	120 h	–	EC50	> 30000 nM
CCCN1CCCC[C@H]1C(=O)Nc1c(C)cccc1C	pyroptotic LDH release	2 µM, 40 min, together with: LPS then nigericin	–	inhibition	4.05%
O=C1/C(=C/c2ccccc2)C(NC2CCCCC2)c2ccccc21 (centres unmarked)	IL-1β secretion, inhibitor, reporter, HEK-Blue, IL-1β	together with: LPS and ATP	–	IC50	923 nM
N#Cc1ccc2c(CN3CCOCC3)cc(-c3ccc([C@H]4CCC(=O)N4)cc3)nc2c1	decreased, item: TNF	10 µM, together with: CML-HSA	reference: vehicle	mRNA level	decreased
C=CC(=O)N1CC/C(=C\c2ccc(F)c([N+](=O)[O-])c2)C(=O)/C(=C/c2ccc(F)c([N+](=O)[O-])c2)C1	IL-1β secretion, inhibitor, reporter, HEK-Blue, IL-1β	together with: LPS and ATP	–	IC50	391 nM
CN1CCN(C(=O)[C@H](CCCN[C@@H]2C[C@H]2c2ccc(F)cc2)NC(=O)c2ccc(-n3ccnn3)cc2)CC1	differentiation, flow cytometry, item: CD11b	96 h	–	EC50	4.15 nM
C=CCNC(N)=S	pyroptotic LDH release	2 µM, 40 min, together with: LPS then nigericin	–	inhibition	33.2%
O=C(O)c1ccc(CN2CCC(CN[C@@H]3C[C@H]3c3ccccc3)CC2)cc1	differentiation, flow cytometry, item: CD11b	96 h	–	EC50	31.2 nM
C[C@@H]1CCC[C@H](C)N1NC(=O)c1ccc(Cl)c(S(N)(=O)=O)c1	pyroptotic LDH release	2 µM, 40 min, together with: LPS then nigericin	–	inhibition	-5.66%
C[C@H]1[C@@H](O)O[C@@H]2O[C@@]3(C)CC[C@H]4[C@H](C)CC[C@@H]1[C@@]24OO3	annexin V/PI flow cytometry, item: annexin V-/PI+	0.2 µM, 24 h	–	necrotic cells	0.1%
CN1CC(Oc2cnc(C#N)cc2-c2ccn3nc(NC(=O)C4CC4)cc3c2)C1	nuclear translocation, item: CRTC3	representative triplicate curve	–	EC50	980 nM
C[C@@H](O)[C@H](NC(=O)[C@H](CCCNC(=N)N)NC(=O)[C@H](CC(N)=O)NC(=O)[C@H](CC(N)=O)NC(=O)[C@@H](N)CCCNC(=N)N)C(=O)N[C@@H](CO)C(=O)NCC(=O)N[C@@H](Cc1ccccc1)C(=O)N[C@@H](CCCCN)C(=O)N[C@@H](Cc1c[nH]c2ccccc12)C(=O)O	Western blot	0.5 µM, 3 days, unit not given, together with: WNT3A	reference: WNT3A alone	active β-catenin level	1.4
CCOC(=O)N1c2ccc(C(F)(F)F)cc2[C@@H](N(Cc2cc(C(F)(F)F)cc(C(F)(F)F)c2)C(=O)OC)C[C@H]1CC	pyroptotic LDH release	2 µM, 40 min, together with: LPS then nigericin	–	inhibition	29.3%
COC(=O)/C=C/C(=O)OCCN1C(=O)CCC1=O	pyroptotic cell death, CellTiter-Glo	together with: LPS priming and nigericin	–	maximum protection	71.3%
CC1(C)S[C@@H]2[C@H](NC(=O)[C@H](NC(=O)N3CCNC3=O)c3ccccc3)C(=O)N2[C@H]1C(=O)O	pyroptotic LDH release	2 µM, 40 min, together with: LPS then nigericin	–	inhibition	28.9%
N[C@H]1CC[C@H](N[C@@H]2C[C@H]2c2ccccc2)CC1	differentiation, flow cytometry, item: CD11b	96 h	–	EC50	0.04 nM
CC1=C(CO)C(=O)O[C@@H]([C@@H](C)[C@H]2CC[C@H]3[C@@H]4C[C@H]5O[C@]56[C@@H](O)C=CC(=O)[C@]6(C)[C@H]4CC[C@]23C)C1	IL-1β secretion, inhibitor, item: IL-1β	together with: LPS and ATP	–	IC50	208 nM
CC(=O)[C@H]1CC[C@H]2[C@@H]3CCC4=CC(=O)CC[C@]4(C)[C@H]3CC[C@]12C	pyroptotic LDH release	2 µM, 40 min, together with: LPS then nigericin	–	inhibition	-5.51%
CC1(C)CC[C@]2(NC(=O)C(C)(F)F)CC[C@]3(C)[C@H](C(=O)C=C4[C@@]5(C)C=C(C#N)C(=O)C(C)(C)[C@@H]5CC[C@]43C)[C@@H]2C1	pyroptotic cell death, inhibitor, CellTiter-Glo	together with: LPS priming and nigericin	–	IC50	167 nM
C[C@H](NC(=O)C(=O)Nc1ccccc1C(C)(C)C)C(=O)N[C@@H](CC(=O)O)C(=O)COc1c(F)c(F)cc(F)c1F	inhibitor, CellTiter-Glo	10 µM, together with: staurosporine 1 µM	–	viability	42.3%
